Values quoted from earlier work that unrelated publications cite.
Lines come from different studies, so protocols differ. Several values in a cell are separate wells, animals, samples, runs or records.

COc1ccc2cc(OCC3(C(=O)O)CN(C(=O)c4ccc(F)cc4)C3)ccc2c1 — IC50 (PDE3; Cerep profiling): 3500 nM
CN(C)c1cccc2c1C#Cc1cccc(N(C)C)c1C#C2 — second-order rate constant (UV spectroscopy; methanol; room temperature, together with: benzyl azide): 0.0383 M⁻¹ s⁻¹ and 0.039 M⁻¹ s⁻¹
O=C(Nc1cnc(Oc2ccc(F)cc2)nc1)N1CCc2ncccc2[C@@H]1c1ccc(F)cc1 — IC50 (LHCGR; cellular activity): 185 nM
Nc1cc(N2CCCCC2)nc(N)[n+]1[O-] — activity class (Toxoplasma gondii; parasite growth; concentration not given, published screen): inactive
O=C(O)[C@H]1[C@H](Cn2nnc3ccccc3c2=O)CC[C@@H]1C(=O)c1ccc(OCCC2CCOCC2)cc1 — IC50 (MMP12; biochemical activity): 0.085 nM
CC[C@@H]1C(=O)N(C)c2cnc(Nc3ccc(C(=O)N[C@H]4CC[C@H](N5CCN(CC6CC6)CC5)CC4)cc3OC)nc2N1C(C)C — IC50 (PLK2; inhibitor): 5 nM
Cn1c(C2(NC(=O)c3ccc(NCC4CCCCC4)nc3)CCC2)nc2ccc(/C=C/C(=O)O)cc21 — IC50 (HCV NS5B; biochemical): > 5000 nM
C[N+](C)(C)c1ccc2c(c1)C#Cc1ccc([N+](C)(C)C)cc1C#C2.O=C([O-])C(F)(F)F.O=C([O-])C(F)(F)F — second-order rate constant (SPAAC cycloaddition, substrate, UV spectroscopy; methanol; room temperature, mean of 2 runs, together with: benzyl azide 100 mM): 0.174 M⁻¹ s⁻¹

Excerpt of the above:
CN(C)c1cccc2c1C#Cc1cccc(N(C)C)c1C#C2 — second-order rate constant (UV spectroscopy; methanol; room temperature, together with: benzyl azide): 0.0383 M⁻¹ s⁻¹ and 0.039 M⁻¹ s⁻¹
